Measurements from different studies.
Each numbered part is a random draw from the data of one study; scales do not carry over between parts. Changes are numbered by the printed parent chain.

Block 1
Target: CCNB2, cyclin fold, Cln2 fusion (human)
Technique: yeast growth competition, sequencing
Medium: yeast
Setting: weak parent motif
Baseline: not given
Reading: higher = stronger binding
Parent: CDKN1B docking peptide (human); PSACRNLFGPVDH; partner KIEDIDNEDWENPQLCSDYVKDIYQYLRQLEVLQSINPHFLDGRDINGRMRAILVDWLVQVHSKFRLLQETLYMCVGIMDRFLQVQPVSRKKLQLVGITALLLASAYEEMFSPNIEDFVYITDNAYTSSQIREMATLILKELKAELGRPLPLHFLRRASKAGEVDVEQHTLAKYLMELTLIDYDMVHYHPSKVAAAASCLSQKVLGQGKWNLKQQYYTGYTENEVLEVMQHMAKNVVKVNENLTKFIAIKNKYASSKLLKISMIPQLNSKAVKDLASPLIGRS
Substitution | normalised enrichment score
PSACRNLFKPVDH [G9K] | 0.802
PSALRNLFGPVDH [C4L] | 0.69
PSACRNLFGPDDH [V11D] | -0.175
PSACRNLLGPVDH [F8L] | 0.0163
PNACRNLFGPVDH [S2N] | -0.0442
PSACRNLFGPVDK [H13K] | 0.2
PSAPRNLFGPVDH [C4P] | -0.0249
PIACRNLFGPVDH [S2I] | 0.0355
YSACRNLFGPVDH [P1Y] | 0.117
KSACRNLFGPVDH [P1K] | 0.479
SSACRNLFGPVDH [P1S] | -0.247
PSACRNLFGPVDL [H13L] | -0.152
PSACRNLFGPTDH [V11T] | -0.0952
PQACRNLFGPVDH [S2Q] | -0.227
PSACRNLFGPVDT [H13T] | -0.0159
NSACRNLFGPVDH [P1N] | 0.029
PSACRNLFQPVDH [G9Q] | 0.149
PSACRNLFYPVDH [G9Y] | 0.536
PSACRNLFGPVDC [H13C] | -0.146
PSTCRNLFGPVDH [A3T] | -0.289

Block 2
Target: Histone acetyltransferase KAT6A, winged helix 1, GST fusion (KAT6A, Homo sapiens, UniProt Q92794, residues 1-85)
Technique: protein binding microarray
Form: double-stranded DNA, one strand shown
Medium: in vitro
Concentration: not given
Setting: 8-mer, flanks averaged, mean of 2 arrays, mostly near background
Baseline: not given
Reading: higher = stronger binding
Construct (chain): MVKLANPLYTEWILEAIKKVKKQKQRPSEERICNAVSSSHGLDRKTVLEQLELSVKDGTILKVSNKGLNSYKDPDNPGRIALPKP
Sequence | E-score
CGACATCG | 0.0819
AGCTGGAT | -0.222
AACCGCGT | 0.351
CACACTGG | -0.142
GCCCATCC | -0.101
GCGATTCA | 0.097
ATCGTTCG | -0.0744
TAGACCAA | -0.148
GGGAGACA | -0.0165
TGGCAACA | -0.285
AGCATGCC | 0.11
ATTCTCTC | -0.0824

Block 3
Target: Sal-like protein 4, full length isoform B (SALL4, Homo sapiens, UniProt Q9UJQ4-2, residues 1-616)
Technique: universal PBM
Form: double-stranded DNA, one strand shown
Medium: in vitro
Concentration: not given
Setting: 8-mer, flanks averaged, mean of replicates
Reading: higher = stronger binding
Construct (chain): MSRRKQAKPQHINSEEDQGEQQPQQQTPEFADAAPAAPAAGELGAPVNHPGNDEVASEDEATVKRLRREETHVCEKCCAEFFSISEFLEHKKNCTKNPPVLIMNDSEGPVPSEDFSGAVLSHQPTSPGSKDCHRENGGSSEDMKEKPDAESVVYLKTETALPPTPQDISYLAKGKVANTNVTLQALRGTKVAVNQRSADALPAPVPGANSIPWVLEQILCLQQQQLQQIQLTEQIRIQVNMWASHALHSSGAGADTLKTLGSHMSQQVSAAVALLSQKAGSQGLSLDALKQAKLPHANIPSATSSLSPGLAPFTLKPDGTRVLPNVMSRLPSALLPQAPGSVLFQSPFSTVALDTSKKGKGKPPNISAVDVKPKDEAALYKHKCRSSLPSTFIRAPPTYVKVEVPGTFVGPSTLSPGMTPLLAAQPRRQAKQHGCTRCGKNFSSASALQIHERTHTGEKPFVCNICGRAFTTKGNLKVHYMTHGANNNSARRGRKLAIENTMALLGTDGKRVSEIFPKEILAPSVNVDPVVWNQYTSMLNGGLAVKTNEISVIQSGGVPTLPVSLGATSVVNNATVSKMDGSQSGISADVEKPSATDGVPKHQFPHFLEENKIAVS
Sequence | E-score
AAATGTAG | 0.163
AACCGGAG | -0.194
AGCAGGCG | -0.294
GCCCATAA | 0.00165
CCCTGCCA | -0.165
ACTTGATG | 0.1
CTCAGGCA | -0.127
GTCGATAA | 0.0632
GAGCAGTA | 0.00411
TCATTAGA | 0.189
AGCGTTGG | -0.165
CAGGGCGC | -0.329
ACGGCCAC | -0.139
ATCGATCG | 0.0422
CAACCTGC | -0.236
AGAGCCAC | -0.168
AACAAGGT | 0.0777
GAAAAGAC | 0.0727

Single results of other studies
Substance | target | test | test system | conditions | how to read | endpoint | result
PhoQ, residues 284 288 289 292 302 303 ALASRC | PhoP, residues 12 14 15 18 19 TPLRH (Escherichia coli, UniProt P23836) | Sort-seq, measured: YFP reporter | E. coli | PhoQ-PhoP variant library, together with: 10 µM Mg2+ | baseline: high Mg2+ state, higher = stronger signaling | fold induction | 0.823

Repeated from above (block 1):
Substitution | normalised enrichment score
PQACRNLFGPVDH [S2Q] | -0.227
PSAPRNLFGPVDH [C4P] | -0.0249
NSACRNLFGPVDH [P1N] | 0.029
PIACRNLFGPVDH [S2I] | 0.0355
PSACRNLFGPTDH [V11T] | -0.0952
